# Results gathered from unrelated publications.
# Each line is one published result; not all experiments were run side by side. Values joined by “and” are separate records of one study, mostly repeats; a detail may differ. Numbers after ± are the reported error.
# Cell line: HepG2
SMILES,test,setting,how to read,quantity,value
C/C(=N\N=C1/NC(=O)CS1)c1c(O)c2ccccc2oc1=O,"cell growth, MTT",,relative to: IC50 BJ-1 over HepG2,selectivity index,> 1.02
COc1ccc(NC(=O)c2c(Nc3ccccc3)sc(C(=O)N/N=C/c3ccc(OC)c(OC)c3)c2NC(C)=O)cc1,"cell growth or viability, SRB","0.1 µM, 48 h",,viability,74%
Cc1ccc(C(C)C)cc1.Cc1ccc(C(C)C)cc1.Cc1ccc(C(C)C)cc1.Cc1ccc(C(C)C)cc1.O=S(=O)(O)C(F)(F)F.O=S(=O)(O)C(F)(F)F.O=S(=O)(O)C(F)(F)F.O=S(=O)(O)C(F)(F)F.c1ccc2c3c4ccccc4c(c2c1)-c1cn(nn1)-c1cc[n+](cc1)[Ru-]1[O]c2c4ccccc4c4c5c(c6ccccc6c(c25)=[O+]1)=[O+][Ru-]([O]4)[n+]1ccc(cc1)-n1cc(nn1)-c1c2ccccc2c(c2ccccc12)-c1cn(nn1)-c1cc[n+](cc1)[Ru-]1[O]c2c4ccccc4c4c5c(c6ccccc6c(c25)=[O+]1)=[O+][Ru-]([O]4)[n+]1ccc(cc1)-n1cc-3nn1,"cell growth, MTT","24 h, 20 µM preincubated in medium 0 h at 37 °C",,IC50,3000 ± 270 nM
CCOC(=O)c1ccc(NC(=O)C(C#N)=C2C(=O)c3ccccc3C2=O)cc1,"cell growth or viability, MTT","6.25 µM, 24 h",,viability,78.6%
Nc1nc(=O)n([C@@H]2O[C@H](CO)[C@@H](O)[C@H]2O)cc1F,cell growth or viability,,,IC50,1640 nM
CC(=O)[O][Pt]([NH2])([NH2])([Cl])([Cl])[O]C(=O)CCC(C)C1CCC2C3CCC4CC(O)CCC4(C)C3CCC12C (stereo not drawn),"cell viability, MTT",72 h,,IC50,2500 ± 200 nM
Cc1ccc2c(Cl)cc(Cl)c([O-])c2n1.Cc1ccc2c(Cl)cc(Cl)c([O-])c2n1.[Co+2].c1cnc2c(c1)ccc1cccnc12,"cell growth or viability, MTT",48 h,,IC50,5660 nM
CN1CCC(N[C@H]2CCc3[nH]c4c(C(N)=O)ccc(-c5ccccc5Cl)c4c3C2)CC1,cell growth or viability,,,IC50,1090 nM
CSC(=S)N/N=C(\C)c1ccc(Nc2nnc(-c3ccc(Cl)cc3)c3ccccc23)cc1,"cell growth or viability, MTT",0.312 µM,,cell death,82.4%
CC[C@H](C)[C@H](NC(=O)[C@@H](NC(=O)[C@@H]1CCCN1C(=O)[C@@H](NC(=O)[C@@H](NC(=O)[C@@H]1CCCN1C(=O)[C@H](CC(C)C)NC(=O)[C@@H](NC(=O)[C@@H](NC(=O)[C@H](Cc1c[nH]cn1)NC(=O)[C@@H]1CCCN1C(=O)[C@H](CC(C)C)NC(=O)[C@@H](NC(=O)[C@H](Cc1c[nH]cn1)NC(=O)[C@H](CCCCN)NC(=O)[C@H](C)NC(=O)[C@@H](NC(=O)[C@H](CO)NC(=O)CNC(=O)[C@H](CC(C)C)NC(=O)[C@@H](NC(=O)[C@H](CO)NC(=O)[C@H](CC(C)C)NC(=O)[C@H](CC(C)C)NC(=O)CN)C(C)C)C(C)C)C(C)C)C(C)C)C(C)C)C(C)C)C(C)C)C(C)C)C(=O)N[C@@H](C)C(=O)N[C@@H](CCC(=O)O)C(=O)N[C@@H](Cc1c[nH]cn1)C(=O)N[C@@H](CC(C)C)C(N)=O,,"5 µg/mL, 24 h",,growth inhibition,no inhibition
CC(C)(C)NC(=O)CC(NC(=O)CCc1ccccc1)C(=O)NCCNC(=O)c1cccc(-c2ccccc2)c1 (stereo not drawn),cytotoxicity,,,EC50,3670 nM
Cc1ccc2c(Cl)cc(Cl)c([O-])c2n1.Cc1ccc2c(Cl)cc(Cl)c([O-])c2n1.[Co+2].c1ccc2nc3c4cccnc4c4ncccc4c3nc2c1,"cell growth or viability, MTT",48 h,,IC50,120 nM
NC1=C(Cl)C(=O)c2ccccc2C1=O,MTT,,relative to: IC50 MRC-5 over IC50 HepG2,selectivity index,1.49
CCOC(=O)c1ccc(-n2c(N)c(C#N)c(SC)c(C#N)c2=O)cc1,"cell growth or viability, MTT","25 µM, 24 h",,viability,56.1%
NC(=O)c1ccc(-c2ccccc2Cl)c2c3c([nH]c12)CCC(N)C3 (stereo not drawn),cell growth or viability,96 h,,IC50,21.7 nM
CC1(C)CC[C@@]2(CO)C(=C3C=C[C@@H]4[C@@]5(C)CC[C@H](O)[C@@](C)(CO)[C@@H]5CC[C@@]4(C)[C@]3(C)C[C@@H]2O)C1,"Western blot, measured: PPAR-α","7.5 µM, no ethanol, unit not given",relative to: β-actin,protein level,1.37 and 3.13 and 2.13
O=C1C(Br)=C(Br)C(=O)c2ccccc21,MTT,,relative to: IC50 MRC-5 over IC50 HepG2,selectivity index,5.14
CCN1C(=O)CS/C1=N/N=C(\C)c1c(O)c2ccccc2oc1=O,"cell growth, MTT",,relative to: IC50 BJ-1 over HepG2,selectivity index,> 1.07
CCC(=[NH+][Pt-2]1([OH])([OH])([Cl])[NH2+]CCC[NH2+]1)N(C)CCNc1c2ccccc2[nH+]c2ccccc12.O=[N+]([O-])[O-].O=[N+]([O-])[O-],,"72 h, together with: pyrimethamine 1 µM",relative to: with over without pyrimethamine,IC50 fold shift,130 fold
CCn1c(-c2ccccc2)cs/c1=N/N=C(\C)c1c(O)c2ccccc2oc1=O,"cell growth, MTT",,relative to: IC50 BJ-1 over HepG2,selectivity index,> 1.15
CCN(C(=O)c1cc(F)ccc1Oc1nncnc1N1CCC2(C1)CN([C@H](CCCN(C)CCOC)C(C)C)C2)C(C)C,cell growth or viability,72 h,,GI50,> 10000 nM
